# Experimental data collected from several papers.
# Lines come from different studies, so protocols differ. ± marks the error that the study gave.
# Organism: Escherichia coli
Structure (SMILES),test,test system,setting,scale,MIC
CC[C@H](C)[C@H](NC(=O)[C@H](CCCCN)NC(=O)[C@H](CC(=O)O)NC(=O)[C@H](CC(C)C)NC(=O)[C@@H](NC(=O)[C@H](CC(N)=O)NC(=O)[C@H](CC(C)C)NC(=O)[C@@H](NC(=O)[C@H](Cc1ccccc1)NC(=O)[C@H](CCCCN)NC(=O)[C@H](CCCCN)NC(=O)CNC(=O)[C@H](C)NC(=O)[C@H](CC(N)=O)NC(=O)[C@H](CCCCN)NC(=O)[C@H](Cc1ccccc1)NC(=O)[C@H](CC(N)=O)NC(=O)[C@H](CCC(=O)O)NC(=O)[C@H](Cc1c[nH]c2ccccc12)NC(=O)[C@H](CC(C)C)NC(=O)[C@@H](N)CO)[C@@H](C)CC)[C@@H](C)CC)C(=O)N[C@@H](CCCNC(=N)N)C(N)=O,,ATCC 8739,"overnight, 37 °C, together with: 150 mM NaCl",,8 µM
C[C@@H](O)[C@H]1C(=O)N2C(C(=O)O)=C(S[C@@H]3CN[C@H](C(=O)N(C)C)C3)[C@H](C)[C@H]12,,,,,32 µg/mL
CC[C@H](C)[C@H](NC(=O)[C@H](CCCNC(=N)N)NC(=O)[C@H](CCC(N)=O)NC(=O)[C@@H](NC(=O)[C@@H](NC(=O)[C@H](CCCNC(=N)N)NC(=O)[C@@H](N)CCCNC(=N)N)[C@@H](C)CC)C(C)C)C(=O)N[C@@H](CCCNC(=N)N)C(=O)N[C@@H](CC(=O)O)C(=O)N[C@@H](Cc1ccccc1)C(=O)N[C@@H](CC(C)C)C(=O)N[C@@H](CCCNC(=N)N)C(N)=O,broth microdilution,K12,"16 h, 37 °C",,30 ± 11 µM
CC1(C)S[C@@H]2[C@H](NC(=O)Cc3ccccc3)C(=O)N2[C@H]1C(=O)O,,BL21(DE3) wild type,,,31.2 µg/mL
CCCCCCCCCC(=O)N[C@@H](Cc1c[nH]c2ccccc12)C(=O)N[C@H](CC(N)=O)C(=O)N[C@@H](CC(=O)O)C(=O)N[C@@H]1C(=O)NCC(=O)N[C@@H](CCCN)C(=O)N[C@@H](CC(=O)O)C(=O)N[C@H](C)C(=O)N[C@@H](CC(=O)O)C(=O)NCC(=O)N[C@H](CO)C(=O)N[C@@H]([C@H](C)CC(=O)O)C(=O)N[C@@H](CC(=O)c2ccccc2N)C(=O)O[C@@H]1C,broth dilution,K-12 MG1655 wild type,,,inactive
C[C@@H](O)[C@H]1C(=O)N2C(C(=O)O)=C(S[C@@H]3CN[C@H](C(=O)N(C)C)C3)[C@H](C)[C@H]12,,"ATCC 25922, no carbapenemase",,,≤ 0.0625 µg/mL
CC1(C)SC2C(NC(=O)C(NC(=O)C3=C(O)C(Cc4ccc(O)cc4)NC3=O)c3ccccc3)C(=O)N2C1C(=O)O (centres unmarked),broth microdilution,BW25113 wild type,18 h,,25 µg/mL
N=C(N)NCCC[C@H](NC(=O)[C@@H](N)CCCNC(=N)N)C(=O)N[C@@H](Cc1c[nH]c2ccccc12)C(=O)N[C@@H](Cc1c[nH]c2ccccc12)C(=O)N[C@@H](Cc1ccccc1)C(=O)N[C@@H](CCC(N)=O)C(=O)N[C@@H](Cc1ccccc1)C(=O)N[C@@H](CCC(N)=O)C(=O)N[C@@H](Cc1ccccc1)C(=O)N[C@@H](CCCCN)C(N)=O,"broth microdilution, optical density",,,,35 µM
CCCCCC(=O)N[C@@H](CCCNC(=N)N)C(=O)N[C@@H](CCCNC(=N)N)C(=O)N[C@@H](CCCNC(=N)N)C(=O)N[C@@H](CCCNC(=N)N)C(=O)N[C@H](C(=O)N[C@@H](CC(C)C)C(=O)N[C@H](C(=O)N[C@@H](CCCNC(=N)N)C(=O)N[C@@H](CCCNC(=N)N)C(=O)N[C@H](C(=O)N[C@@H](CC(C)C)C(=O)N[C@@H](CCCNC(=N)N)C(=O)N[C@@H](CC(C)C)C(=O)N[C@@H](CCCNC(=N)N)C(=O)N[C@@H](CO)C(=O)N[C@@H](CO)C(=O)N[C@@H](C)C(=O)N[C@@H](Cc1ccc(O)cc1)C(N)=O)C(C)C)[C@@H](C)CC)[C@@H](C)CC,broth microdilution,ATCC 25922,highest value reported,,16 µM
CC[C@H](C)[C@H](NC(=O)[C@H](Cc1c[nH]c2ccccc12)NC(=O)[C@@H](N)CCCCN)C(=O)N[C@H]1CSSC[C@@H](C(=O)N[C@@H](CCCNC(=N)N)C(=O)N[C@@H](Cc2c[nH]c3ccccc23)C(=O)N[C@@H](CCCNC(=N)N)C(=O)O)NC(=O)[C@H](Cc2ccc(O)cc2)NC(=O)[C@H]([C@@H](C)O)NC(=O)[C@H]([C@@H](C)CC)NC(=O)[C@H](Cc2c[nH]c3ccccc23)NC(=O)[C@H](CCCNC(=N)N)NC(=O)CNC(=O)[C@H](CCCNC(=N)N)NC(=O)[C@H](Cc2ccc(O)cc2)NC(=O)[C@H](Cc2c[nH]c3ccccc23)NC(=O)[C@H](CC(C)C)NC(=O)[C@H](CCCNC(=N)N)NC(=O)[C@H](CCCNC(=N)N)NC1=O,"bacterial growth, broth dilution, OD600","DH5α, LB medium","16 h, 37 °C",,12.5 µM
C[C@@H](O)[C@H]1C(=O)N2C(C(=O)O)=C(SCCN=CN)C[C@H]12,,"NCCP 16046 carbapenem-resistant, Mueller-Hinton broth","16 h, 37 °C",,8 µM
CC(C)Oc1c(NC(=O)c2ccc(NC(=O)[C@H](CC(N)=O)NC(=O)c3ccc(NC(=O)c4ccc(C#N)c(Cl)c4)cc3)cc2)ccc(C(=O)Nc2ccc(C(=O)O)cc2)c1O,,K12 ΔtolC,,,< 0.03 µg/mL
CCCCCCC/C=C/C(=O)N1C(=O)/C(=C(/C)O)C(=O)C1CCCCN (centres unmarked),,K12 ΔtolC,,,50 µg/mL
Oc1cc(Cl)ccc1Oc1ccc(Cl)cc1Cl,,MG1655 FabI G148S Debio-1452-NH3-resistant,,,2 µg/mL
CC[C@@H](C)[C@@H](N)C(=O)N[C@@H](C(=O)N[C@H](Cc1ccc(O)cc1)C(=O)N[C@@H](C(=O)N[C@H](CCN)C(=O)N[C@H](CC(C)C)C(=O)N[C@H](CO)C(=O)N[C@H](CCN)C(=O)N[C@@H](C(=O)N[C@H](CCN)C(=O)N[C@H](Cc1c[nH]cn1)C(=O)N[C@H](CCN)C(=O)N[C@H](C)C(=O)N[C@H](CCN)C(=O)N[C@H](CCN)C(N)=O)[C@H](C)CC)[C@H](C)CC)[C@H](C)CC,,"W3110, colistin-sensitive, Mueller-Hinton broth",,,2 µg/mL
CC[C@H](C)[C@H](NC(=O)[C@H](CCCCN)NC(=O)[C@H](CCCCN)NC(=O)CNC(=O)[C@H](CCCCN)NC(=O)[C@H](CC(C)C)NC(=O)[C@H](CCCCN)NC(=O)[C@H](CCCNC(=N)N)NC(=O)[C@@H](NC(=O)[C@H](CC(C)C)NC(=O)[C@H](CCCNC(=N)N)NC(=O)[C@@H](N)CCCNC(=N)N)[C@@H](C)CC)C(=O)N[C@@H](Cc1ccc(O)cc1)C(=O)N[C@@H](CC(C)C)C(=O)N[C@@H](Cc1ccc(O)cc1)C(=O)N[C@@H](Cc1ccccc1)C(=O)N[C@@H](CCCCN)C(=O)N[C@@H](CC(C)C)C(=O)N[C@@H](CCC(N)=O)C(=O)N[C@@H](CC(C)C)C(=O)N[C@@H](CC(C)C)C(=O)N[C@@H](CCCCN)C(=O)N[C@@H](CCCCN)C(N)=O,broth microdilution,"KCTC 1682, Mueller-Hinton broth",no added salt,,8 µM
CC1(C)S[C@@H]2[C@H](NC(=O)[C@H](N)c3ccccc3)C(=O)N2[C@H]1C(=O)O,broth microdilution,JW0790-2 fiu deletion mutant,ferric iron uptake gene,,6.25 µg/mL
CC[C@H](C)[C@H](N)C(=O)N[C@@H](CC(C)C)C(=O)NCC(=O)N[C@H](CCCNC(=N)N)C(=O)N[C@H](C(=O)N[C@@H](Cc1c[nH]c2ccccc12)C(=O)N[C@@H](CCCCN)C(=O)NCC(=O)N[C@H](C(=O)N[C@@H](CCCCN)C(=O)N[C@@H](CC(=O)O)C(=O)N[C@H](C(=O)N[C@@H](CC(C)C)C(N)=O)[C@@H](C)CC)[C@@H](C)CC)[C@@H](C)CC,broth microdilution,"ATCC 25922, Mueller-Hinton broth","16 h, 37 °C",,6.25 µM
CC[C@H](C)[C@H](NC(=O)CNC(=O)[C@H](CC(=O)O)NC(=O)[C@H](CCCNC(=N)N)NC(=O)[C@@H](NC(=O)[C@H](CC(N)=O)NC(=O)[C@H](CCCNC(=N)N)NC(=O)CNC(=O)[C@@H](NC(=O)[C@H](CCCCN)NC(=O)[C@H](CCC(=O)O)NC(=O)[C@@H](NC(=O)[C@H](CCCCN)NC(=O)[C@H](CCCCN)NC(=O)[C@H](Cc1ccccc1)NC(=O)[C@@H](NC(=O)[C@H](CCCCN)NC(=O)[C@H](Cc1c[nH]c2ccccc12)NC(=O)[C@@H](N)CCC(=O)O)[C@@H](C)CC)[C@@H](C)CC)C(C)C)C(C)C)C(=O)N[C@H](C(=O)N[C@@H](CCCCN)C(=O)N[C@@H](C)C(=O)NCC(=O)N1CCC[C@H]1C(=O)N[C@@H](C)C(=O)N[C@H](C(=O)N[C@@H](C)C(=O)N[C@H](C(=O)N[C@H](C(=O)NCC(=O)N[C@@H](CCC(N)=O)C(=O)N[C@@H](C)C(=O)N[C@@H](C)C(=O)N[C@H](C(=O)N[C@H](C(=O)N[C@H](C(=O)N[C@@H](CCCCN)C(N)=O)C(C)C)C(C)C)[C@@H](C)O)C(C)C)C(C)C)C(C)C)[C@@H](C)CC,,"K1 ATCC 700973, Mueller-Hinton broth","16 h, 37 °C",growth inhibition over 99%,8 µM
CC(C)Oc1c(NC(=O)c2ccc(N3C(=O)C[C@H](NC(=O)c4cc(F)c(/N=N/c5c(F)cccc5F)c(F)c4)C3=O)cc2)ccc(C(=O)N/N=C/c2c(Cl)cncc2Cl)c1O,,BW25113,"18 h, 37 °C, dark-adapted state",,> 6.4 µg/mL
